Experimental data collected from several papers.
Cell line: MCF7

SMILES = COc1cc(/C=C/C(=O)/C=C(O)/C=C/c2ccc(OCC(=O)N3CCOCCOCCOCCOCCOCC3)c(OC)c2)ccc1OCC(=O)N1CCOCCOCCOCCOCCOCC1; read-out = cell growth or viability; method = SRB; tested at = 5 µM; inhibition = 39%
SMILES = COc1ccc(CC(C)=C(c2ccc(Cl)cc2)c2ccc(OCCN3CCCC3)cc2)cc1; read-out = cell growth or viability; tested at = 10 µM; inhibition = 64.3%
SMILES = OC(c1ccc(C(F)(F)F)cc1)c1c[nH]c2ncc(C(F)(F)F)cc12 (centres unmarked); read-out = cell growth or viability; tested at = 10 µM; time = 72 h; inhibition = 33%
SMILES = CC(C)OC1(CO)CCC2C(C)(CO)C(O)CCC2(C)C1C=CC1=CCOC1=O (centres unmarked); read-out = cell growth or viability; method = MTT; tested at = 20 µM; time = 48 h; inhibition = 17%
SMILES = CC(=C(c1ccc(Cl)cc1)c1ccc(OCCN(C)C)cc1)c1ccc(Cl)cc1; read-out = cell growth or viability; tested at = 10 µM; inhibition = 6.63%
SMILES = FC(F)(F)c1cnc2[nH]cc(Cc3cccc(Oc4ccccc4)c3)c2c1; read-out = cell growth or viability; tested at = 10 µM; time = 72 h; inhibition = 26%
SMILES = CC(C)(C)c1cc2c(O)c(c1)Cc1cc(C(C)(C)C)cc(c1OCC(=O)Nc1cncc3ccccc13)Cc1cc(C(C)(C)C)cc(c1O)Cc1cc(C(C)(C)C)cc(c1OCC(=O)Nc1cncc3ccccc13)COC2; read-out = cell growth or viability; method = MTT; tested at = 15 µM; time = 72 h; inhibition = 94%
SMILES = COc1ccc(C2=Nn3c(NN=C4C(=O)N(Cc5ccccc5)c5ccc(Cl)cc54)nnc3SC2)cc1; read-out = cell growth or viability; method = SRB; tested at = 10 µM; inhibition = 35%
SMILES = COc1ccc(SCC(=O)c2ccc(O)cc2O)cc1; read-out = cell growth or viability; method = MTT; tested at = 100 µM; time = 48 h; inhibition = 5.48%
SMILES = CCC(=C(c1ccc(Cl)cc1)c1ccc(OCCN2CCCCC2)cc1)c1ccc(Cl)cc1; read-out = cell growth or viability; tested at = 10 µM; inhibition = 73.4%
SMILES = CC(C)(C)c1cc2c(O)c(c1)Cc1cc(C(C)(C)C)cc(c1OCC(=O)Nc1ccncc1)Cc1cc(C(C)(C)C)cc(c1O)Cc1cc(C(C)(C)C)cc(c1OCC(=O)Nc1ccncc1)COC2; read-out = cell growth or viability; method = MTT; tested at = 15 µM; time = 72 h; inhibition = 26%
SMILES = CCOC(=O)C/C(C)=N/NC(=O)c1nc2ccccc2n(C)c1=O; read-out = cell growth or viability; method = MTT; tested at = 10 µM; inhibition = 96%
SMILES = CC(C)(C)c1cc2c(O)c(c1)Cc1cc(C(C)(C)C)cc(c1OCC(=O)Nc1nccs1)Cc1cc(C(C)(C)C)cc(c1O)Cc1cc(C(C)(C)C)cc(c1OCC(=O)Nc1nccs1)COC2; read-out = cell growth or viability; method = MTT; tested at = 15 µM; time = 72 h; inhibition = 89%
SMILES = COc1ccc(CN(CCCCCCC(=O)NO)Cc2ccc(OC)c(OC)c2)cc1OC; tested at = 10 µM; inhibition = 55%
SMILES = O=C(COc1ccc(/C=N/Nc2nc(-c3ccc(Cl)cc3)cs2)cc1)N1CCN(C(=O)COc2ccc(/C=N/Nc3nc(-c4ccc(Cl)cc4)cs3)cc2)CC1; read-out = cell growth or viability; method = SRB; tested at = 100 µM; time = 48 h; inhibition = 82.4%
SMILES = Nc1ccc(Oc2c(F)c(F)c(Oc3ccc(N)cc3)c(F)c2F)cc1; read-out = cell growth or viability; method = MTT; tested at = 100 µM; time = 48 h; inhibition = 16.9%
SMILES = CC(C)(C)c1cc2c(O)c(c1)Cc1cc(C(C)(C)C)cc(c1OCC(=O)NCc1cccnc1)Cc1cc(C(C)(C)C)cc(c1O)Cc1cc(C(C)(C)C)cc(c1OCC(=O)NCc1cccnc1)COC2; read-out = cell growth or viability; method = MTT; tested at = 15 µM; time = 72 h; inhibition = 95%
SMILES = COc1ccc(CC(C)=C(c2ccc(Cl)cc2)c2ccc(OCCN3CCOCC3)cc2)cc1; read-out = cell growth or viability; tested at = 10 µM; inhibition = 14.1%
SMILES = Cc1ccc(C2=Nn3c(N/N=C4/C(=O)Nc5ccc(Br)cc54)nnc3SC2)cc1; read-out = cell growth or viability; method = SRB; tested at = 10 µM; inhibition = 12%
SMILES = C=C1CC[C@@H]2[C@](C)(CO)[C@H](O)CC[C@@]2(C)[C@@H]1/C=C/C1=CCOC1=O; read-out = cell growth or viability; method = MTT; tested at = 20 µM; time = 48 h; inhibition = 5.52%
SMILES = CCN1C(=O)/C(=C\c2ccc(O)cc2)SC1=S; read-out = cell growth or viability; method = MTT; tested at = 100 µM; time = 48 h; inhibition = 25.3%
SMILES = FC(F)(F)c1ccc(Cc2c[nH]c3ncc(C(F)(F)F)cc23)cc1; read-out = cell growth or viability; tested at = 10 µM; time = 72 h; inhibition = 44%
SMILES = C=C/C(=C/C(=O)C[C@H](C)C[C@@H](C)CC[C@H](O)[C@H](C)C(=O)/C=C/[C@H](C)[C@@H](C)O)CC; read-out = cell growth or viability; method = MTT; tested at = 50 µM; time = 48 h; inhibition = 89%
SMILES = CCC(=C(c1ccc(Cl)cc1)c1ccc(OCCCN(C)C)cc1)c1ccc(OC)cc1; read-out = cell growth or viability; tested at = 10 µM; inhibition = 90.9%
SMILES = Cc1nc2ccc(Cc3c[nH]c4ncc(C(F)(F)F)cc34)cc2o1; read-out = cell growth or viability; tested at = 10 µM; time = 72 h; inhibition = 22%
SMILES = CC(=O)OCC1=CCC2[C@]3(C)COC(c4ccccc4)O[C@@H]3CC[C@@]2(C)[C@@H]1/C=C/C1=CCOC1=O (some centres unmarked); read-out = cell growth or viability; method = MTT; tested at = 20 µM; time = 48 h; inhibition = 2.87%
SMILES = C/C(=N\N(c1ccccc1)c1ccccc1)c1ccc(O)cc1; read-out = cell growth or viability; method = MTT; tested at = 100 µM; time = 48 h; inhibition = 69.4%
SMILES = COc1cc(Cc2c[nH]c3ncc(C(F)(F)F)cc23)cc(OC)c1; read-out = cell growth or viability; tested at = 10 µM; time = 72 h; inhibition = 33%
SMILES = CCC(=C(c1ccc(Cl)cc1)c1ccc(OCCN2CCCC2)cc1)c1ccc(Cl)cc1; read-out = cell growth or viability; tested at = 10 µM; inhibition = 46%
SMILES = OC(c1cc(F)ccc1F)c1c[nH]c2ncc(C(F)(F)F)cc12 (centres unmarked); read-out = cell growth or viability; tested at = 10 µM; time = 72 h; inhibition = 32%
SMILES = OCc1ccc(-c2cc(C(F)(F)F)cc(C(F)(F)F)c2)o1; read-out = cell growth or viability; method = MTT; tested at = 100 µM; time = 48 h; inhibition = 4.3%
SMILES = COc1cccc(Cc2c[nH]c3ncc(C(F)(F)F)cc23)c1; read-out = cell growth or viability; tested at = 10 µM; time = 72 h; inhibition = 32%
SMILES = O=C(COc1ccc(/C=N/Nc2nc(-c3ccc(Br)cc3)cs2)cc1)N1CCN(C(=O)COc2ccc(/C=N/Nc3nc(-c4ccc(Br)cc4)cs3)cc2)CC1; read-out = cell growth or viability; method = SRB; tested at = 100 µM; time = 48 h; inhibition = 89.2%
SMILES = OC(c1cccc(C(F)(F)F)c1)c1c[nH]c2ncc(C(F)(F)F)cc12 (centres unmarked); read-out = cell growth or viability; tested at = 10 µM; time = 72 h; inhibition = 33%
SMILES = CC(Cc1ccc(Cl)cc1)=C(c1ccc(Cl)cc1)c1ccc(OCCN2CCCCC2)cc1; read-out = cell growth or viability; tested at = 10 µM; inhibition = 36.7%
SMILES = C/C(=N\N=c1/[nH]c(-c2ccccc2)cs1)c1ccccn1; read-out = cell growth or viability; method = SRB; tested at = 100 µg/mL; time = 48 h; inhibition = 51.5%
SMILES = CCC(=C(c1ccc(Cl)cc1)c1ccc(OCCN2CCOCC2)cc1)c1ccccc1; read-out = cell growth or viability; tested at = 10 µM; inhibition = 13.8%
SMILES = COc1ccc2cc3[n+](cc2c1OCc1cn(Cc2ccc(C(C)(C)C)cc2)nn1)CCc1cc2c(cc1-3)OCO2.[Cl-]; read-out = cell growth; method = MTT; tested at = 7.8 µM; inhibition = > 50%
